# Assay results from different studies.
# A part holds a random share of what one study measured.

# Series 1
# Organism: Saccharomyces cerevisiae
# Read-out: cell growth
# Technique: competitive growth deep sequencing
# Form: peptide
# Notes: peptide tiling library
# Added: cyclin E2-Cln2 fusion
# Direction: direction not given
Sequence,enrichment score
IFNKPECGRVQRAIFQ,-0.769
NCKKRRALDFLSRLPL,-1.23
RRRIKLPESDSSED,2.42
NLEPNAEFDKRTEFIT,0.124
TLPYDLACTGGDFVLF,1.13
LFVPQRKLEVSTEDVH,-0.371
FREFEVEKQTAEETGL,0.752
NARRSLNFGGSTGT,0.369
DSGFCLDSPGPLDSKE,1.19
ALTMEALEDPSPELME,1.25

# Series 2
# Target: Centromere-binding protein 1, full length, N-terminal tag (CBF1, Saccharomyces cerevisiae, UniProt P17106, residues 1-351)
# Sequence of UniProt P17106 (whole entry, looked up): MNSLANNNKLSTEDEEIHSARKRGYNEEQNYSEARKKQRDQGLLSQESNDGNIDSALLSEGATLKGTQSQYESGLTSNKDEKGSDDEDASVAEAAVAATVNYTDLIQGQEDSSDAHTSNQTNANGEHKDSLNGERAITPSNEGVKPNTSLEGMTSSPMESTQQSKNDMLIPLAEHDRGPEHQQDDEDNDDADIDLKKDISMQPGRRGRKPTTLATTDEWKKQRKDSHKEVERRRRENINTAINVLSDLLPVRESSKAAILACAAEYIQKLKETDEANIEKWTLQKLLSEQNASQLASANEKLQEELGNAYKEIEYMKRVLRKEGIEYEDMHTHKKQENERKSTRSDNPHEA
# Technique: protein-binding microarray
# Form: double-stranded DNA, one strand shown
# Sample: in vitro
# Concentration: 0.8 µM
# Notes: whole 60-bp probe, no competitor
# Direction: higher = stronger binding
# Shared flanks, not repeated: … GTCTTGATTCGCTTGACGCTGCTG
Strand,fluorescence intensity [a.u.]
CTAACTCAATAGTGCCACACCATTGTTAACGAGTTC,507
GAACACCACCACCACCACCACCGCCTGGATACGTAG,519
CTAACAGACATCGATCACATCTATAATAGGAGCTTC,536
GAAACCAACTATGGTTGTGACGTAAAAGTGGAGTAG,546
CTAAAAAAACAAAAGTAGATCACAAGTTTTCCATTC,561
CTATTTCCTATCTTCTACCTGATGTGTGCATGATTC,632
GAATTTTACCCTCTACACGTTGTCACCCCTTTCTAG,545
CCTAACTACTATAATCACCAGATATAGCTTCGTACA,523
GAAAATAAAGAGAGTCACGGGGAATATCGGGAATAG,1750
GAACCGTAGTAATATCACGATAGGACAAATTGGTAG,595
CTAGGATATAATATTCATGTGGATTTTTAAGAATTC,541

# Series 3
# Target: Fragile X messenger ribonucleoprotein 1, C-terminal low-complexity region (Fmr1, Mus musculus, UniProt P35922)
# Technique: RNA Bind-n-Seq
# Form: RNA
# Sample: in vitro
# Concentration: 200 nM
# Notes: whole 134-nt RNA, ends assumed
# Added: 150 mM LiCl
# Baseline: input library
# Direction: higher = stronger binding
# Each molecule: 7-deaza-guanosine replaces G
# Shared flanks, not repeated: GGGAGUUCUACAGUCCGACGAUC … UGGAAUUCUCGGGUGUCAAGG
Strand,log2 enrichment
AAGUCCUGUGCUACACAUCGUAUGUACCGAAUCGGGUUUUUGGGAAAAAGGGAGGGAAAGUAUUAUGUUACGCCGUUCGGAUCUGCACUU,-1.28
CCUCAAGUCCUGUGCUACACAUCGUAUGUACCGAAUCGGUUGGUUGGGUUGGGAAAGUAUUAUGUUACGCCGUUCGGAUCUGCACUUCCA,-0.0183
CACAGACAACACGCACCCACACAGACACAGAGGGAAGGGGUUGGGAUGGGGACAGGGUGCGCAGCAGGGCGGGGUAGGACCCCAGCCCCU,-0.957
CCUUUUUGAGAAGGCCGGACCCAUUUGGGAUCUACGUCUUAUGAUGGAUCCACUGUCCGGUCAGAAUAGAGGGUAUGCAUUUAUCACCUU,-0.0843
CUGUGCUACACAUCGUAUGUACCGAAUCGGGAAAAAAAGGGAAAAAAAGGGGAAAAAAAGGGAAAGUAUUAUGUUACGCCGUUCGGAUCU,0.297
UGUACUCGGAAGUUUCACUUACCAUCGACCACUCUCUGAUUCCGGAGGAGAGGCUCUCGCCCACCCCAUCCAUGCAGGAUGGGCUCGACC,0.843
UCAAGUCCUGUGCUACACAUCGUAUGUACCGAAUCGGUUUUUUUGGAAAGGAGGAAAGUAUUAUGUUACGCCGUUCGGAUCUGCACUUCC,-0.463
GUCCUGUGCUACACAUCGUAUGUACCGAAUCGGGGAAAAAAAGGGGUUUGGGGAGGGGAAAGUAUUAUGUUACGCCGUUCGGAUCUGCAC,-1.02

# Mixed results
Molecule,target,test,system,setting,how to read,endpoint,value
"PhoQ, residues 284 288 289 292 302 303 NLMGRA","PhoP, residues 12 14 15 18 19 SYFRT (Escherichia coli, UniProt P23836)","Sort-seq, measured: YFP reporter",E. coli,"PhoQ-PhoP variant library, added: 10 µM Mg2+","baseline: high Mg2+ state, higher = stronger signaling",fold induction,1.18

# Excerpt of the above (series 2):
Strand,fluorescence intensity [a.u.]
CCTAACTACTATAATCACCAGATATAGCTTCGTACA,523
GAAAATAAAGAGAGTCACGGGGAATATCGGGAATAG,1750
GAACCGTAGTAATATCACGATAGGACAAATTGGTAG,595
